Measurements of several laboratories.
Every numbered part comes from another study and shows a few of its results, in no order. Positions count from the first letter of the parent shown.

Set 1 — technique: protein binding microarray; form: double-stranded DNA, one strand shown; medium: in vitro; tested at: not given; baseline: not given; reading: higher = stronger binding; endpoint: E-score
Target: Histone acetyltransferase KAT6A, winged helix 1, GST fusion (KAT6A, Homo sapiens, UniProt Q92794, residues 1-85)
Setting: 8-mer, flanks averaged, mean of 2 arrays, mostly near background
Construct (chain): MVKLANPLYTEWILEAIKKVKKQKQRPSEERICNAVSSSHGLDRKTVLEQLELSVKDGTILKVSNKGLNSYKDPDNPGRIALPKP
ATCCTGCA: -0.292
CACTCAGC: -0.136
ATTGCCGC: 0.327
CACAGGCG: 0.117
AAGTCGCC: 0.0784
AGACACCG: -0.0526
CCCAATAA: -0.232
ACGCCGAA: 0.211
ATCCAAGA: -0.269
AAACTCAT: -0.203
AAAACCGA: -0.00545
ACATTCTC: -0.0446
AAGCATTA: -0.122
AAGACTGC: -0.0884
CTTACAGA: -0.0919
AGATCTCG: -0.0326
AGGCCTTG: -0.2
GAATCTCC: -0.0548
ATTCAGCA: -0.184
CACGACCG: 0.196
ATTCTCAA: -0.129
CTGGCCCC: -0.117
AAGGACGT: -0.195

Set 2 — technique: protein-binding microarray; form: double-stranded DNA, one strand shown; medium: in vitro; tested at: 2200 nM top; setting: 60-bp whole probe; added: salmon DNA 0.4 mg/ml; baseline: random background probes; reading: higher = stronger binding; endpoint: fitted relative affinity; all sequences stand within: GCCTAGCAC … GTCTTGATTCGCTTGACGCTGCTG
Target: Interferon regulatory factor 7, full length, phosphomimetic (IRF7, Homo sapiens, UniProt Q92985, residues 1-503, S471D/S472D/S475D/S476D/S477D/S483D/S484D/S487D)
Target sequence (chain): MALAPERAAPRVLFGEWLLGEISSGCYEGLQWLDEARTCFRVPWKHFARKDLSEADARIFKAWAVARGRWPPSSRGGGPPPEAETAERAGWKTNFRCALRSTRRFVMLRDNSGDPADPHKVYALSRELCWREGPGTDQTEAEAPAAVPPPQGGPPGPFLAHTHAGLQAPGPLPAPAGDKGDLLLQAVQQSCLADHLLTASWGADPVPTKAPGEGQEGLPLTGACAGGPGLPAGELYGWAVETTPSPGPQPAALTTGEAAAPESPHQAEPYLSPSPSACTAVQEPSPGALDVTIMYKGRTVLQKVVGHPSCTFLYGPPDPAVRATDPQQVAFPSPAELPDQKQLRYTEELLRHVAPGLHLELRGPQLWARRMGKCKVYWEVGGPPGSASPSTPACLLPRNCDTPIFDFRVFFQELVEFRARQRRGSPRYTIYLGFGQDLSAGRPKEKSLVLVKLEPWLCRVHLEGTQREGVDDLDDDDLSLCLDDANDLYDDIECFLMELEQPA
GACGGTTTCCTACGGCTGACGTGCTAG: 1.16 z-score
TCAATTTTGCTTTCATTACTGTGCTAG: 3.12 z-score
TCATATATCATTTAATTACTGTGCTAG: 0.968 z-score
TCAAGTAGCTTTCTGAGACTGTGCTAG: 0.384 z-score
GAAGATATCAGTCTCGAGACGTGCTAG: -0.105 z-score
GACGGACGGCTTCTCCTGACGTGCTAG: -0.398 z-score
TCATTTTTGGAATGTCTTACTGTGCTA: 2.06 z-score
GCCGGACTGCTTATCCTGACGTGCTAG: 0.238 z-score
GACGGACTGGACTATCGGTACGTGCTA: -0.11 z-score
CCCTATTTAAGGCATCTGCAGGTGCTA: 0.776 z-score
GACGATCACAGTATCGAGACGTGCTAG: 0.0331 z-score
TTAGGTTTCGGGTATCGGTGAGTGCTA: 6 z-score
GACGATTTCGGGTTTCGAGATGTGCTA: 5.42 z-score
TTAGGTTTCCTTTCCCTGTAGTGCTAG: 4.41 z-score
GCCGATTCCAGTTTCGAGACGTGCTAG: 4.53 z-score
TTAGGTATCGAGACTGGGTTAGTGCTA: -0.144 z-score
TTACGTATCGACACTGGGTTAGTGCTA: 1.46 z-score
GACGATATAAGTATCGAGACGTGCTAG: 0.0692 z-score
CGGCCTCTAGGTTTTCTGAAGTGCTAG: -0.387 z-score
GTTGTTTTAAATTCTAATTAGTGCTAG: 0.641 z-score

Set 3 — technique: RNA Bind-n-Seq; form: RNA; medium: in vitro; tested at: 365 nM; baseline: no-protein control; reading: higher = stronger binding; endpoint: RBNS enrichment (R)
Target: RNA binding protein fox-1 homolog 2, RRM domain, GST-SBP tag (RBFOX2, Homo sapiens, UniProt O43251-10, residues 100-194)
Setting: natural RNA segment, single round, ends assumed
Construct (chain): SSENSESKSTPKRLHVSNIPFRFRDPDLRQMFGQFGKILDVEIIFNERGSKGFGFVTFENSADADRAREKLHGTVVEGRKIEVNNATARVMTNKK
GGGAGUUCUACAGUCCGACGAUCACUUGAACCAGAUUAUAGAUUUAAAAGUAUAUGACAUGUAUUUUGUAUUUAAAACUAGAAUAGCCAGUAUUUAUGUUUUUUAUAAAACUGUGCAAUACGAAUUAUGCAAUUGGAAUUCUCGGGUGCCAA: 0.786
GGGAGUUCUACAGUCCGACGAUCGGCAUUUUGUCCAGAACAGCUUGUAGCAGCUAUAGAUUCCCCCUUGGCCCCAAGCCUGGGACUUGAGCCAUCGUAACUCACUAACAGGGAGAAUUAGCUAGUAGCAAUGUUGGAAUUCUCGGGUGCCAA: 0.442
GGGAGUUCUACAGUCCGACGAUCCAGUGGGCAGACGCCUGGGCACCCCUUGGGCCCUGCCCAGCAUGGCCAUGGCGCAGGCUCUCGAACCCGCAUGGCUUUCCCAGGCCUGGUGAUUCUGCUCUCCAGGGACGUGGAAUUCUCGGGUGCCAA: 2.79
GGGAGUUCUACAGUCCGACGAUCAUAUACCACACCUCAUAGUUAGGCUUGGCAGUGGCCUGACUCUUGUAAAGACAAUGUAGAAAACACACUAAUUACUGUUUGUAGUGUCUUUGGAUGCUCACGGGUUCUGUUGGAAUUCUCGGGUGCCAA: 0.505
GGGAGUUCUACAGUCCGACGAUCGGGCUUCUUCCUACCAAAGUGUCCCCUCACCAGUCUGCCUAGAGCAUCACUGGAACCCGCACUAAACAAGGACCUUUGGACCAGACAAGAAGUCUUCCCUCAACUACGUGUGGAAUUCUCGGGUGCCAA: 0.382
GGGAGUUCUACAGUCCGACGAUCAUUUUUAAGCUUCUACAGAUAUGGUCCUAGAGACUGGGGUCCUCAGACACUCCCGCUGUAUGUGGUGAGCUUGGCUGGAAACUUGCCAUAGCCAGGACUGAGGGGCUGGCUGGAAUUCUCGGGUGCCAA: 1.83
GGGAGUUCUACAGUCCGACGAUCUACUAAAAUAGGUUAAUAGUAAGCAAGGUGCCGGUGUACAGUCUCUAACUCGAUCAGUGUCUUUUCAGCACUUUGGAGCAUUUCCUUGGCUCAUCUAGUCUUCCUUUUGUUGGAAUUCUCGGGUGCCAA: 0.54
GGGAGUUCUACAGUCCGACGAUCUCAACAGGCCCUGGAGCCAGGACUGGAGUCUUGGCAGCUGAUGAGCAGCACCUUGCCGGCCAGGAGGAGCUGAUGCUGACGAUCUCCCCAACAUCUGAAGGCUUAAAGAAUGGAAUUCUCGGGUGCCAA: 0.988
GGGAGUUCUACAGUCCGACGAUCUCCCUCGGAGGACAUCGUCUGUGUCCAGGUCAGAAAGUGGCCCAGGAAGGGGGCAGUUUCUGUCGCGGGUCCGGUGGGGGCGCGGCCGCGGUGCGGUCGGUGCAGCGUGGUGGAAUUCUCGGGUGCCAA: 0.864
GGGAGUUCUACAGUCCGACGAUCUUUCACUACAGGUCUUGUUAAAAUUCUUUGCAGCACUUCGUGUCCCCUCACGUCCCAUGUGCUCAGACCCAGAAAAAGCAGAACAGAAUUAGAAGUGCCUCUGAGCCUUGUGGAAUUCUCGGGUGCCAA: 0.32
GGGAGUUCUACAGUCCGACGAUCACAUUGUGGUCUGAAGCUCAGGCCACAGUGCCUGCCUCGUUCCCUCAGCCUCCCUCCCAGGGCUCCAGAGCUCAGCUCUUCCUUUUCUAGAAGCAUGUGAAGAUGCCCAAUGGAAUUCUCGGGUGCCAA: 0.579
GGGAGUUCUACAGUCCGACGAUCGCUAGUAGUGUUCUAGAUUAUGUCUUUCCAAAGCGCUGAGGCUGUGCACCUAUUCUGUAGUUGCAGCUGAUGCCUGAAUGUAUCCUAGCUGACAAAUUAUUGAUUAAUAAUGGAAUUCUCGGGUGCCAA: 0.212

Set 4 — target: CCNA2, cyclin fold, Cln2 fusion (human); technique: yeast growth competition, sequencing; medium: yeast; setting: strong parent motif; baseline: not given; reading: higher = stronger binding; endpoint: normalised enrichment score
Starting sequence: ITGB3BP docking peptide (human); MPVKRSLKLDGLL
MPVKRSLALDGLL [K8A]: 1.78
MPVKRSLKLAGLL [D10A]: 1.55
MPVARSLKLDGLL [K4A]: 1.81
MPVKRSLKADGLL [L9A]: 1.52
MPAKRSLKLDGLL [V3A]: 2.61
MPVKKSLKFDGLL [R5K L9F]: 2.55
MPVKRALKLDGLL [S6A]: 3.22

Excerpt of the above (set 2):
GACGGTTTCCTACGGCTGACGTGCTAG: 1.16 z-score
TCAATTTTGCTTTCATTACTGTGCTAG: 3.12 z-score
TCATATATCATTTAATTACTGTGCTAG: 0.968 z-score
TCAAGTAGCTTTCTGAGACTGTGCTAG: 0.384 z-score
GAAGATATCAGTCTCGAGACGTGCTAG: -0.105 z-score
GACGGACGGCTTCTCCTGACGTGCTAG: -0.398 z-score
TCATTTTTGGAATGTCTTACTGTGCTA: 2.06 z-score
